Assay results collected from several papers.
Each line is one published result; not all experiments were run side by side. Values joined by “and” are separate records of one study, mostly repeats; a detail may differ. ± marks the error that the study gave.

Structure (SMILES) | target or system | test | test system | setting | how to read | quantity | value
O=C1NC2(CC2)COc2ncc(F)cc2[C@H]2COCCN2c2ccn3ncc1c3n2 | CHL |  |  | 5 µg/mL, 24 h, without S9 |  | numerical aberrations | 0%
CCCCCCCCCCCCOC(=O)c1ccc(O)cc1 | Caco-2 monolayers |  |  | 5 µM, 1 h, basolateral to apical |  | mass balance | 87%
O=C(CCC(F)(F)F)Nc1ccc([C@H]2[C@@H](F)[C@@H](F)C[C@@H](F)[C@H]2F)cc1 |  | hepatocyte stability | cryopreserved human hepatocytes | 1 µM |  | hepatic clearance | 19 mL/min/kg
CC(C)C[C@@H]1NC(=O)[C@H](CO)NC(=O)[C@H](CC(=O)O)NC(=O)[C@@H]2CCCN2C(=O)[C@H]2CCCN2C(=O)[C@H](C(C)C)NC(=O)[C@H](CC(=O)O)NC(=O)[C@H](CC(N)=O)NC(=O)[C@H](CCCNC(=N)N)NC(=O)[C@H]([C@@H](C)O)NC(=O)[C@H](C(C)C)NC(=O)CCNC(=O)CCNC(=O)[C@H](Cc2ccccc2)NC(=O)[C@H](C(C)C)NC(=O)[C@H](CC(C)C)NC1=O | HEK-293T | subcellular fractionation LC-MS | nuclear fraction | 20 µM, 2 h |  | concentration | not detected
Cc1ccc(-n2nc(C(=O)Nc3cccc(C(N)=O)c3)cc2-c2ccc(CC(C)C)cc2)cc1 | HeLa | cell growth or viability |  |  |  | CC50 | > 50 µM
CC(C)C[C@](O)(C(=O)OCc1ccc(O[C@@H]2O[C@H](CO)[C@@H](O)[C@H](O)[C@H]2O)cc1)[C@H](O)C(=O)OCc1ccc(O[C@@H]2O[C@H](CO)[C@@H](O)[C@H](O)[C@H]2O)cc1 | HaCaT | cytotoxicity, MTT |  | 48 h, 10% FBS |  | IC50 | > 200 µM
N#Cc1ccc(CNC(=O)c2cc(-c3ccccc3)n(-c3ccccc3)n2)cc1 | HeLa | cell growth or viability |  |  |  | CC50 | > 50 µM
COc1cc(/C=C/C=C2\SC(=S)NC2=O)ccc1O | HEK-293T | CellTiter-Glo |  | 20 µM, 24 h, unit not given | reference: untreated | viability | 0.999 and 0.976
CN1CCN(c2ccc(NC(=O)c3cc(-c4ccccc4)n(-c4ccccc4)n3)cc2)CC1 | HeLa | cell growth or viability |  |  |  | CC50 | 38 µM
CC(=O)N[C@H](C(=O)N[C@H](C(=O)N[C@@H](CCCNC(=N)N)C(=O)N[C@@H](CC(N)=O)C(=O)N[C@@H](CC(=O)O)C(=O)N[C@H](C(=O)N1CCC[C@@H]1C(=O)N1CCC[C@H]1C(=O)N[C@@H](CC(=O)O)C(=O)N[C@@H](CO)C(=O)N[C@@H](CC(C)C)C(=O)N[C@@H](CC(C)C)C(=O)N[C@H](C(=O)N[C@@H](Cc1ccccc1)C(N)=O)C(C)C)C(C)C)[C@@H](C)O)C(C)C | HEK-293T | subcellular fractionation LC-MS | nuclear fraction | 20 µM, 24 h |  | peptide amount | not detected
Cc1cc(=O)c2c(O)c3c(O[C@@H]4O[C@H](CO)[C@@H](O)[C@H](O)[C@H]4O)cc(O)cc3cc2o1 | HepaRG co-cultured with HK-2 | MTT |  | 66.67 µM, 48 h | reference: untreated control | cell viability | 64.3 ± 5.75%
CC1(C)C(NC(=O)C(=NOC2(C(=O)O)CC2)c2csc(N)n2)C(=O)N1OS(=O)(=O)O (stereo not drawn) | HaCaT | cell growth or viability |  |  |  | CC50 | > 100 µM
O=C(c1cc(-c2ccccc2)n(-c2ccccc2)n1)N1CCc2nc[nH]c2C1 | HeLa | cell growth or viability |  |  |  | CC50 | > 50 µM
CN1CCCNC(=O)c2cccc(c2)C(=O)NCCCN(C)CCCNc2cccc3c2C(=O)c2cccc(c2C3=O)NCCC1 | HeLa | cell growth or viability, CCK-8 |  | 0.5 µM, 48 h |  | viability | 40.8%
NCc1ccc(CNC(=O)c2cc(-c3ccccc3)n(-c3ccccc3)n2)cc1 | HeLa | cell growth or viability |  |  |  | CC50 | > 50 µM
CCC(=CCc1c(O)cc2c(c1O)C(=O)CC(c1cc(O)ccc1OC)O2)CC (stereo not drawn) | HeLa | cytotoxicity, MTT |  | 48 h, with: S9 fraction |  | log IC50 | 1.47 log µM
NC(=O)c1cccc(NC(=O)c2cc(-c3ccc4c(c3)OCCO4)n(-c3ccccc3)n2)c1 | HeLa | cell growth or viability |  |  |  | CC50 | > 100 µM
O=C(OCc1ccc(O[C@@H]2O[C@H](COC(=O)c3ccc(O)cc3)[C@@H](O)[C@H](O)[C@H]2O)cc1)c1ccc(O)cc1 | HaCaT | cytotoxicity, MTT |  | 48 h, 10% FBS |  | IC50 | > 200 µM
N=C(N)NCCC[C@@H]1NC(=O)[C@H](CCCNC(=N)N)NC(=O)[C@@H](C(c2ccccc2)c2ccccc2)NC(=O)[C@H](Cc2c[nH]c3ccccc23)NC(=O)[C@@H](C(c2ccccc2)c2ccccc2)NC(=O)[C@@H](CCCNC(=N)N)NC(=O)[C@@H](CCCNC(=N)N)NC1=O | MRC5 | cell growth or viability, MTS |  | 100 µg/mL, 24 h |  | viability | > 90%
O=CCNCCOn1c(=O)n(OCCNCCO)c(=O)n(OCCNCCOn2c(=O)n(OCCNCCO)c(=O)n(OCCNCCO)c2=O)c1=O | HUVEC | cell growth or viability, MTT |  | 72 h |  | IC50 | 3.1 µg/mL
CNC(=O)c1ccc([C@H]2[C@@H](F)[C@@H](F)C[C@@H](F)[C@H]2F)cc1 |  | liver microsome stability | mouse liver microsomes | 1 µM |  | hepatic clearance | 33 mL/min/kg

For quick reference, copied from above:
Structure (SMILES) | target or system | test | test system | setting | how to read | quantity | value
NC(=O)c1cccc(NC(=O)c2cc(-c3ccc4c(c3)OCCO4)n(-c3ccccc3)n2)c1 | HeLa | cell growth or viability |  |  |  | CC50 | > 100 µM
O=C(OCc1ccc(O[C@@H]2O[C@H](COC(=O)c3ccc(O)cc3)[C@@H](O)[C@H](O)[C@H]2O)cc1)c1ccc(O)cc1 | HaCaT | cytotoxicity, MTT |  | 48 h, 10% FBS |  | IC50 | > 200 µM
